# Results pooled from the literature.
# Parts stem from different laboratories: compare values within a part only. Substitutions count along the parent as printed.

# Study 1 — method: DHFR PCA, deep sequencing; medium: yeast; together with: (+)-ABA 2500 µM; baseline: wild-type fitted maximum; reading: higher = stronger binding
# Target: ABI1, truncated, D143A, DHFR fusion (Arabidopsis thaliana)
# Setting: methotrexate growth selection, single substitutions
# Starting sequence: PYL1, truncated, DHFR fusion (Arabidopsis thaliana); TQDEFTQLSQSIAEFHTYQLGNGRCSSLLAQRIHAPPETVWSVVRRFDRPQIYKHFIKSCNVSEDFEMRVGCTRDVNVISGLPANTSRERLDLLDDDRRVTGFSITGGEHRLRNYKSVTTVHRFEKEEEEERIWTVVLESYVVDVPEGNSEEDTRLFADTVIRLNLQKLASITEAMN
Substitution,relative binding score
F5L,105%
S117N,79.8%
D92I,87.1%
I105V,105%
E147K,95.5%
V44R,70.6%
N114E,90.6%
D3Q,107%
F15G,53.1%
E151A,98.6%
F103C,50.1%
G21L,94.2%
F66N,96.1%

# Study 2 — method: RNA Bind-n-Seq; molecule type: RNA; medium: in vitro; concentration: 200 nM; setting: whole 134-nt RNA, ends assumed; together with: 150 mM LiCl; baseline: input library; reading: higher = stronger binding; library: 7-deaza-guanosine replaces G
# Target: Fragile X messenger ribonucleoprotein 1, C-terminal low-complexity region (Fmr1, Mus musculus, UniProt P35922)
# Constant ends, left off below: GGGAGUUCUACAGUCCGACGAUC … UGGAAUUCUCGGGUGUCAAGG
Sequence,log2 enrichment
GCAGGAAGUAAAAACAAAUGGAAAUGCUUCGGAUAGUGGCAGGGGUGGGUGUUGCUAAGGAAAGGGUGGGAUGGGAGUGGGUAAAGAGUU,1.26
CUCAAGUCCUGUGCUACACAUCGUAUGUACCGAAUCGGUUGGGUUGGGUUGGGGAAAGUAUUAUGUUACGCCGUUCGGAUCUGCACUUCC,-1.17
AGUCCUGUGCUACACAUCGUAUGUACCGAAUCGGGUUUUGGUUUUGGGGUUUUGGGGAAAGUAUUAUGUUACGCCGUUCGGAUCUGCACU,-1.34
GUCCUGUGCUACACAUCGUAUGUACCGAAUCAAAUUUAAACCCCCAAACCCCCCCAAAAAAGUAUUAUGUUACGCCGUUCGGAUCUGCAC,1.22
GUCCUGUGCUACACAUCGUAUGUACCGAAUCGGAAAAAAAGGAAAAAAAGGAAAAAGGAAAGUAUUAUGUUACGCCGUUCGGAUCUGCAC,-0.879
UUUUUCCAGAGCUCACAACGACCUGGGGCUGAGGACAAUGUCCUCAAUGAGAUCGUGAGUAUCUUGCAGCCCACCCAGGUCCCUGAGCAG,-2.18
CUCAAGUCCUGUGCUACACAUCGUAUGUACCGAAUCGGGAGGGGAGGGGAGGGGAAAGUAUUAUGUUACGCCGUUCGGAUCUGCACUUCC,-0.278
CAAGUCCUGUGCUACACAUCGUAUGUACCGAAUCGGGAGGGAAAAAGGGUUUGGGAAAGUAUUAUGUUACGCCGUUCGGAUCUGCACUUC,-1.84

# Study 3 — method: RNA Bind-n-Seq; molecule type: RNA; medium: in vitro; concentration: not given; baseline: input RNA pool; reading: higher = stronger binding
# Target: RING finger protein unkempt homolog, zinc fingers 1-6, GST-SBP tag (UNK, Homo sapiens, UniProt Q9C0B0, residues 30-357)
# Setting: RNA with constant flanks, human-mouse chimeric sites, ends assumed
# Constant ends, left off below: GGGAGUUCUACAGUCCGACGAUC … CAACAGAGGAUUGAGCAUCA
# Target sequence (chain): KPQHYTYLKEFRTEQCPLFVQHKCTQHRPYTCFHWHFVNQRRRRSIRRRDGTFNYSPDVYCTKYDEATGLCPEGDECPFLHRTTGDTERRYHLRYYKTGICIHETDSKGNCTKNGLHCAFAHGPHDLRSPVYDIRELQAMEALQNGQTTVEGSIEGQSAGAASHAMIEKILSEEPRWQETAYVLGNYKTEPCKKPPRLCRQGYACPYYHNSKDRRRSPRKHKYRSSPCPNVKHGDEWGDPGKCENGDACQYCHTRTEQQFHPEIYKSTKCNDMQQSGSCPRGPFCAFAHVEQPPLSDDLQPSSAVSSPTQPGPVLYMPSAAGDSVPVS
Sequence,bound/input enrichment [ratio]
AAAGAGUGGAUAGAGUGUGCACACGGGAUCGGUGGGACCCGGGCGAAGAAAGAGUGCAAGAUAGAAUUCGAUGACUUCGAAGAGUGCUUGCUUCGGUACAAAACGAUGAGGCGAAUGCAU,0.345
UAAGUUAUUUUGUACAGCUUUGUAAAUUCUUAACAUUUUUAUAUUGCCAUGUUUAUUUUUUUUAGAUAAUUUGGUUCAUUAAGUACAUAGCUAAGGUAAUGAACAUCUUUUUCAGUAAUU,3.66
CCUGCUCAGAUCACCAUGAAAGUAAUCCAAGGCCUAUAUAGUGGGGUCACCACAGUGGAACUAGAUACCCUGGCUGCUGAGACAGCCGCGACCUUGACCACGAAGCACCCUGACUAUGCC,0.169
CUGUGACCACAAGAUCCUACCUGAGUGGCAGCUGAAGUUGACUCCCUCUCCUUGCCUGAACCCCCCCCCACUGCCCCUUGAGUCCACAGUGUCGGCUAUUCUCUGGUCUCUGCACGGUUC,0.323
UGUGCAUAUGAUGCUUGAGAUGGUUUUUGCAAAAGCAGAAAUCGCUGCAAGGUAAUCACAAUAGAUAAAAGUGGUAUUUUAAACCUUUGAAAGGAAUGGAUGUAACUGUACCUUGGUACA,0.334
AACUUCGUGCAUCGGUUUCCCUUUGUAGCUGUUUCAAUUGGCUUCCUUGUAAAUAAAAAGAUAGAAUUUGGAAUUGUGUACAGCUGUGUGGAAGAUAAGAUGUACACCGGCAGGAAAGGG,4.24
AGAGCCCAGGAUGUUGAUGCUACAAACCCAAAUUACGAAAUUAUGUGUAUGAUCAGAGACUUUAGAGGGAGCUUGGAUUACAGACCCCUAACAACAGCAGAUCCUAUUGAUGAACAUAGG,0.491
GGACCAUAAUCAUGGAGGACAUAAUGCAGCUCCCCAAAGCGCGCGUCAACGCCAGCAUGUUACCACAGUAUAUCGACCGGCCCGUGUGCUUCGUGGGGAAGCUGGAAAAGAUUCAUCCCA,0.0959

# Study 4 — target: CCNA2, cyclin fold, Cln2 fusion (human); method: yeast growth competition, sequencing; medium: yeast; setting: weak parent motif; baseline: not given; reading: higher = stronger binding
# Starting sequence: SLBP docking peptide (human); ARYKRKLLINDFG
Substitution,normalised enrichment score
ARYKRKQLINDFG [L7Q],0.258
ARYKAKALINDFG [R5A L7A],1.27
ARYKRKLLINVFG [D11V],1.99
ARYKLKLLINDFG [R5L],1.7
ARYMRKLLINDFG [K4M],1.57
ARYGRKLLINDFG [K4G],1.13
ARYKIKLLINDFG [R5I],0.553
ARVKRKLLINDFG [Y3V],1.95
ARYKRYLLINDFG [K6Y],2.09
ARYKRKLLINSFG [D11S],1.44
ARYKSKLLINDFG [R5S],1.53
AQYKRKLLINDFG [R2Q],1.43
ARYYRKLLINDFG [K4Y],0.581
ARYKRKTLINDFG [L7T],0.116
ARYTRKLLINDFG [K4T],0.864
ARYKRKALINDFG [L7A],0.886
ARSKRKLLINDFG [Y3S],2.13
AKYKRKLLINDFG [R2K],1.14
